# Experimental data pooled from the literature.
# Every numbered part comes from another study and shows a few of its results, in no order.
# UniProt P10721, sequence (whole entry, unmodified, looked up): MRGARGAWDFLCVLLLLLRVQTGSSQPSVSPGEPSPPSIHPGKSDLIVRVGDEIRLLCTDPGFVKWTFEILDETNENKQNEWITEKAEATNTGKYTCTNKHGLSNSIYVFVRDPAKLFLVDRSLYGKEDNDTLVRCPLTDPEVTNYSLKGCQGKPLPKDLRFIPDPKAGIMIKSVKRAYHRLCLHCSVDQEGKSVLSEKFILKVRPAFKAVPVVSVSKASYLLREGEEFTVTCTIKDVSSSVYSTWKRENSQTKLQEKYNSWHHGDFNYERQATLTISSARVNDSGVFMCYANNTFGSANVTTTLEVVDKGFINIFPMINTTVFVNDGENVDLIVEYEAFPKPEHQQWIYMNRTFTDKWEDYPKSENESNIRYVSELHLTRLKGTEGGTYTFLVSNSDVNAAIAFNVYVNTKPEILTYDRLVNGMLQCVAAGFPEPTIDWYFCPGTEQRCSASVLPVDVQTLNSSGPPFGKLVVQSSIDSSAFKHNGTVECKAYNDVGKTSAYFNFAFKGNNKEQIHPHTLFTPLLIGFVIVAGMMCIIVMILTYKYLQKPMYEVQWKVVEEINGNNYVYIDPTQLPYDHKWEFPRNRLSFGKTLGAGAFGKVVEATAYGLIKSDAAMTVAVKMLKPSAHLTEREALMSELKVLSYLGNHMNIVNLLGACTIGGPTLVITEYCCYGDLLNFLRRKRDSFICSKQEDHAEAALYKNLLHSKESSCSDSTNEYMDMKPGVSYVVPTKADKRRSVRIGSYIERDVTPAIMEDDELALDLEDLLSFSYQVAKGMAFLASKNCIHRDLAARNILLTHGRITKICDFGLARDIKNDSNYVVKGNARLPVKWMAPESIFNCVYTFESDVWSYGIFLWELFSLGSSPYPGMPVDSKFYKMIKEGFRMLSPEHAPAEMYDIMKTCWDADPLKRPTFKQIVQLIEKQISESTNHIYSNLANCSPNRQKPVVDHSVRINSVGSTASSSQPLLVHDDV
# UniProt Q13470, sequence (whole entry, looked up): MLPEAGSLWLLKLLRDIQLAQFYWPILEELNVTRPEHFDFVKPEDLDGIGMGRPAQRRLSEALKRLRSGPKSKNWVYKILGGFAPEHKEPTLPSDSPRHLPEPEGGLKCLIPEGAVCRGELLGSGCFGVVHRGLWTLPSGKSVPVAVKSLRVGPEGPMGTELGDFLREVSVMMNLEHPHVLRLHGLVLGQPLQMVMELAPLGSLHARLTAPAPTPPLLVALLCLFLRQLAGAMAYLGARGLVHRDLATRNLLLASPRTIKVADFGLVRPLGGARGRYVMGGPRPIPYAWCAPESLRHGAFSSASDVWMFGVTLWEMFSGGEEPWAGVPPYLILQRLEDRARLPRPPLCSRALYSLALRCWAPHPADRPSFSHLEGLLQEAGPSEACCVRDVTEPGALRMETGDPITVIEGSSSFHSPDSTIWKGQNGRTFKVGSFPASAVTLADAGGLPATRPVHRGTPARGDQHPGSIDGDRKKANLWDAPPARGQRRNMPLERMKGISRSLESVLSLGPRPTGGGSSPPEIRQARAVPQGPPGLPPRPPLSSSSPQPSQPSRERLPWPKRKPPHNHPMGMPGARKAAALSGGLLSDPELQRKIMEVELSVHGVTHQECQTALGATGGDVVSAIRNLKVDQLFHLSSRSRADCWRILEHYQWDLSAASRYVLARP
# UniProt P51812, sequence (whole entry, looked up): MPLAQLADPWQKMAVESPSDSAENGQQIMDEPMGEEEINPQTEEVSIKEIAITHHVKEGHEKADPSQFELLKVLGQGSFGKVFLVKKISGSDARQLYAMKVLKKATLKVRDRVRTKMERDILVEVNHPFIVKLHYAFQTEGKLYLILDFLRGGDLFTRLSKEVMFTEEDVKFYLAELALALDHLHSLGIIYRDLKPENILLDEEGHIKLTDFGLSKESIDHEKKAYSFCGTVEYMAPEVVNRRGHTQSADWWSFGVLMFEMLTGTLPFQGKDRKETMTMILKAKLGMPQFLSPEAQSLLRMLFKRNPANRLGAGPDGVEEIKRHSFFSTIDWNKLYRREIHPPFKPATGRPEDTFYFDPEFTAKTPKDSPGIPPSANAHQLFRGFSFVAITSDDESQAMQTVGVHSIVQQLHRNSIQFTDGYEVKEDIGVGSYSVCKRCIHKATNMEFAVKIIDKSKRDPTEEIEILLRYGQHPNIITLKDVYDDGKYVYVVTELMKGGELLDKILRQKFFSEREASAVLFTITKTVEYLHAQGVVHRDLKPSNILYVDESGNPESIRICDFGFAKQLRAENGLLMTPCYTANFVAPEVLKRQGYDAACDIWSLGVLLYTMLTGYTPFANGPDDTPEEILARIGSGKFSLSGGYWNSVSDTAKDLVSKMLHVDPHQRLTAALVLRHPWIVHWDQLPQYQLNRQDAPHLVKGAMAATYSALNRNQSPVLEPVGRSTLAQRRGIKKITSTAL
# UniProt Q15208, sequence (whole entry, looked up): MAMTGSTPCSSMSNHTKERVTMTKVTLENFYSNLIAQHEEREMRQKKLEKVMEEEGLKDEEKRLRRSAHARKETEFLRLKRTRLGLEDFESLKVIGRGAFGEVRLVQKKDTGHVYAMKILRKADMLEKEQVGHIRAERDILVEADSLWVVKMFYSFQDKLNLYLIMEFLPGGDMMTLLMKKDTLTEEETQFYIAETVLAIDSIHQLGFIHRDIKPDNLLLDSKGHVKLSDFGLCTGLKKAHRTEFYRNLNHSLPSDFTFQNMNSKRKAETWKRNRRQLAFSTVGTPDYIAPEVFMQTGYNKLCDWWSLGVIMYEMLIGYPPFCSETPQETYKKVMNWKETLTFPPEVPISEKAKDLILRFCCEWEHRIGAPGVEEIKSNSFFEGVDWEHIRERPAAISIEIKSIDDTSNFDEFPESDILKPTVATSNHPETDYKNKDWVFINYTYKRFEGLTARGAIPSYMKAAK
# UniProt Q9HC98, sequence (whole entry, looked up): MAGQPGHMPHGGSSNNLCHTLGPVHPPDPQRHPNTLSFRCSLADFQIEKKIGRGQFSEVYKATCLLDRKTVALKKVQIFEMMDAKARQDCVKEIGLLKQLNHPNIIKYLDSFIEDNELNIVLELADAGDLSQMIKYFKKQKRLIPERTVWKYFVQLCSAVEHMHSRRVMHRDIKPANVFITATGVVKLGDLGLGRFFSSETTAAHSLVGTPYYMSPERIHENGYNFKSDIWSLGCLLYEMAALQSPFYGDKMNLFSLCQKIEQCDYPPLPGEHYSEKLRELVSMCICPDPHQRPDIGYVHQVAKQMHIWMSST
# UniProt P10398, sequence (whole entry, looked up): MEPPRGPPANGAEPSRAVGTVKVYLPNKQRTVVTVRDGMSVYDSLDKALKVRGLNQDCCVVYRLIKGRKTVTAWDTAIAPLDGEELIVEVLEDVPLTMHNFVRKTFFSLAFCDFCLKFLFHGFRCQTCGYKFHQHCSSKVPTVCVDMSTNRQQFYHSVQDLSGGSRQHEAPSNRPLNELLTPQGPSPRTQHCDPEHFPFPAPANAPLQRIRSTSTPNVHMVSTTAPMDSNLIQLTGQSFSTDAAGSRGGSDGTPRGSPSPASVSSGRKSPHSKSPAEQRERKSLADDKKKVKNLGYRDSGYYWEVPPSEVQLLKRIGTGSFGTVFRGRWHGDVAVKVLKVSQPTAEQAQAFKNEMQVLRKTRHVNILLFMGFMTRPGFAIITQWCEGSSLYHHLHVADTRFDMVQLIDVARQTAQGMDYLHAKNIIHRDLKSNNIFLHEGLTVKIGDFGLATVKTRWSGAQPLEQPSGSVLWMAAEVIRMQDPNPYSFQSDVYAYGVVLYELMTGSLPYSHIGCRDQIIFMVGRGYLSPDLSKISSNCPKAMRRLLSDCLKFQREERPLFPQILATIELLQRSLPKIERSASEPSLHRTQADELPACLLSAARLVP
# UniProt Q13546, sequence (whole entry, looked up): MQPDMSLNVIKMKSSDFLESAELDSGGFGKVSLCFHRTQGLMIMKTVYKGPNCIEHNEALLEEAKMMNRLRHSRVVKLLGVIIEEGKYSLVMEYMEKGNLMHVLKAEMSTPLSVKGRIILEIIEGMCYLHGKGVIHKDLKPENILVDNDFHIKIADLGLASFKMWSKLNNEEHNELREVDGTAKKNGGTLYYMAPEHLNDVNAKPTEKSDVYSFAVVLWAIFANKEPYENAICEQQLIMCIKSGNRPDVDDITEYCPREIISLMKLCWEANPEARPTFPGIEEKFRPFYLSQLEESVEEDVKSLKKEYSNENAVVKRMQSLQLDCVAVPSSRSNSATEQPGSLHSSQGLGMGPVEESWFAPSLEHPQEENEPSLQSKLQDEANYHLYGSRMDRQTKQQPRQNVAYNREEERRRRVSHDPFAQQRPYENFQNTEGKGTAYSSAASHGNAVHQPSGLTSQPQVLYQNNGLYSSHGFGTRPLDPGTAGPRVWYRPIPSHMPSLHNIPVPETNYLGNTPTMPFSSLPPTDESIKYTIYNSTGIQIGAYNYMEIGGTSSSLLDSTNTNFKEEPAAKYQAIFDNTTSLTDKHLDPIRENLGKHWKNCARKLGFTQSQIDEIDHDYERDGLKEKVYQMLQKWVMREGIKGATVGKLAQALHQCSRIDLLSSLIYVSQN

# Series 1
# SMILES: COc1cc(-c2cn(C3CCc4ccccc4N(CC(F)(F)F)C3=O)nn2)ccc1-n1ccc(C)n1 (centres unmarked)
# Technique: competition with immobilised ligand
# Concentration: 1 µM
target,observed,remaining binding [%]
"Receptor tyrosine-protein kinase erbB-3 (ERBB3, Homo sapiens, UniProt P21860)",cell-free assay,77
"Citron Rho-interacting kinase (CIT, Homo sapiens, UniProt O14578)",cell-free assay,100
"Receptor-interacting serine/threonine-protein kinase 1 (RIPK1, Homo sapiens, UniProt Q13546)",cell-free assay,100
"Serine/threonine-protein kinase 38 (STK38, Homo sapiens, UniProt Q15208)",cell-free assay,100
"Phosphatidylinositol 4,5-bisphosphate 3-kinase catalytic subunit alpha isoform (PIK3CA, Homo sapiens, UniProt P42336, H1047Y)",cell-free assay,100
"Mast/stem cell growth factor receptor Kit (KIT, Homo sapiens, UniProt P10721, D816V)",cell-free assay,100
"Dual specificity mitogen-activated protein kinase kinase 7 (MAP2K7, Homo sapiens, UniProt O14733)",cell-free assay,100
"Epidermal growth factor receptor (EGFR, Homo sapiens, UniProt P00533, del752-759)",cell-free assay,100
"Fibroblast growth factor receptor 4 (FGFR4, Homo sapiens, UniProt P22455)",cell-free assay,100
"Calcium/calmodulin-dependent protein kinase type II subunit alpha (CAMK2A, Homo sapiens, UniProt Q9UQM7)",cell-free assay,85
"Phosphatidylinositol 4-phosphate 3-kinase C2 domain-containing subunit beta (PIK3C2B, Homo sapiens, UniProt O00750)",cell-free assay,100
"Non-receptor tyrosine-protein kinase TNK1 (TNK1, Homo sapiens, UniProt Q13470)",cell-free assay,100
"Dual specificity protein kinase CLK4 (CLK4, Homo sapiens, UniProt Q9HAZ1)",cell-free assay,80
"Cytoplasmic tyrosine-protein kinase BMX (BMX, Homo sapiens, UniProt P51813)",cell-free assay,100
"Casein kinase I isoform alpha (CSNK1A1, Homo sapiens, UniProt P48729)",cell-free assay,98
"SRSF protein kinase 2 (SRPK2, Homo sapiens, UniProt P78362)",cell-free assay,81
"Fibroblast growth factor receptor 2 (FGFR2, Homo sapiens, UniProt P21802)",cell-free assay,100
"Hepatocyte growth factor receptor (MET, Homo sapiens, UniProt P08581)",cell-free assay,100
"Uncharacterized serine/threonine-protein kinase SBK3 (SBK3, Homo sapiens, UniProt P0C264)",cell-free assay,92
"Mast/stem cell growth factor receptor Kit (KIT, Homo sapiens, UniProt P10721, A829P)",cell-free assay,68
"RAC-alpha serine/threonine-protein kinase (AKT1, Homo sapiens, UniProt P31749)",cell-free assay,97
"Ribosomal protein S6 kinase alpha-3, N-terminal kinase domain (RPS6KA3, Homo sapiens, UniProt P51812)",cell-free assay,97
"Serine/threonine-protein kinase ICK (CILK1, Homo sapiens, UniProt Q9UPZ9)",binding,63

# Series 2
# Target: RING finger protein unkempt homolog, zinc fingers 1-6, GST-SBP tag (UNK, Homo sapiens, UniProt Q9C0B0, residues 30-357)
# UniProt Q9C0B0, sequence (30-357, looked up): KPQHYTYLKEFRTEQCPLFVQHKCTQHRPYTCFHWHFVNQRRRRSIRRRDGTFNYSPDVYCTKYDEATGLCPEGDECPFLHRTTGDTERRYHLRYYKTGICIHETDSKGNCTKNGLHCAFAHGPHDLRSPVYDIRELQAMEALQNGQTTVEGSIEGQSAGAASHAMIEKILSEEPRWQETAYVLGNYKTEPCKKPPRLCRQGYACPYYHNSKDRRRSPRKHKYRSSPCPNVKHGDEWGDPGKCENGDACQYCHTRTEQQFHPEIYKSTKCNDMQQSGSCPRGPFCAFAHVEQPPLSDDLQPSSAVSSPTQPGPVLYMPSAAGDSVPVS
# Technique: RNA Bind-n-Seq
# Molecule type: RNA
# Medium: in vitro
# Concentration: not given
# Notes: RNA with constant flanks, human-mouse chimeric sites, ends assumed
# Relative to: input RNA pool
# Reading: higher = stronger binding
# All sequences stand within: GGGAGUUCUACAGUCCGACGAUC … CAACAGAGGAUUGAGCAUCA
Oligonucleotide,bound/input enrichment [ratio]
ACCAUUUUCGCGGUUCAGGCUUUGUGUGUAGUUCACUUACGGUAUUAAAUUAUUAUUGCCCUUAGUUUAUAAUAAGGAUAAUUGCAUGAUUUAAGUAUACUGAAUGUUACUCUGAAACUU,0.238
ACUCAGAGAUCCACCUCCCAAAGUGCUGGGAGUAAAGGUGUGGCCACCACACCUAACUUGAUGGAUAUAUAUUUUUUCUCUUUUAUGUGAACUCUUGCGUCCAGGGAAGAAAGAUUUGUU,0.152
CUGGCCUGGCCCUCCCCAGGGGCCUCCUUUCGUAUAGUAACUGUCAGUGCAUCAGAUACUUUCAGCUGCAACUCCCUACUGGGUGGGGCACCCAUUUGAGGCAGGGUGUUUUGGUACCCU,0.465
CCAAUUGUGGAGCAGUACUUGAAGACAAAGAAAAAUUCUAAUAAUUUAAUCAUCAAGUACAUUAGCUGCCGCCUGCUGACACUCAUCGUUAUACUGUUAGCGUGUAUCUACCUGGGCUAU,0.437
CAGCCUCAGAGCCCAGACUUCCUGGAUAUUACCAACCCUAAAGCGGUAUUAGAAAACGCAUUGAGAAACUUUGCCUGUCUGACGACUGGAGAUGUGAUUGCUAUCAACUACAAUGAGAAG,0.419
GGAAGUACAAUGAUGGAGAUUGAUGGUGACAAAGGCAAACAAGGCGGGCCCACCUACUACAUAGACACCAAUGCCCUCCGCGUGCCCAGGGAGAAUAUGGAGGCCAUCUCACCACUCAAG,0.239
GUAAUGGACGUUAAUACUGCUCUACAAGAGGUGCUGAAGACCGCCCUCAUCCACGAUGGCCUAGCACGUGGAAUUCGCGAAGCUGCCAAAGCCUUAGACAAGCGCCAAGCCCAUCUGUGU,0.434
AUCCAGUACUCGAAUCACAAAGAACUAAAGACAGAUAAUACAUUAAACCAACGUGCUCAGGCAGUUCUUCAAGCUGUGACAGCUGUCCAGACAGCAAAUACACCUCUUAGUGGCACCACA,0.369

# Series 3
# SMILES: O=C(Nc1cccc(Nc2nccc(Nc3cccc(C(F)(F)F)c3)n2)c1)C1CC1
# Observed: enzyme activity
# Action: inhibitor
# Concentration: 0.5 µM
# Relative to: control
target,remaining activity
"Tyrosine-protein kinase Mer (MERTK, Homo sapiens, UniProt Q12866)",90.1%
"Macrophage-stimulating protein receptor (MST1R, Homo sapiens, UniProt Q04912)",92.6%
"Angiopoietin-1 receptor (TEK, Homo sapiens, UniProt Q02763)",101%
"Serine/threonine-protein kinase A-Raf (ARAF, Homo sapiens, UniProt P10398)",90.2%
"Tyrosine-protein kinase FRK (FRK, Homo sapiens, UniProt P42685)",92.2%
"Casein kinase I isoform gamma-2 (CSNK1G2, Homo sapiens, UniProt P78368)",101%
"Serine/threonine-protein kinase Nek6 (NEK6, Homo sapiens, UniProt Q9HC98)",103%
"Serine/threonine-protein kinase ULK2 (ULK2, Homo sapiens, UniProt Q8IYT8)",107%
"Rhodopsin kinase GRK7 (GRK7, Homo sapiens, UniProt Q8WTQ7)",101%
"Dual specificity mitogen-activated protein kinase kinase 2 (MAP2K2, Homo sapiens, UniProt P36507)",89.2%
"Tyrosine-protein kinase ABL2 (ABL2, Homo sapiens, UniProt P42684)",83.8%
"MAP kinase-activated protein kinase 2 (MAPKAPK2, Homo sapiens, UniProt P49137)",102%

# Single results of other studies
# Technique: two-hybrid
# Relative to: out of 4 tests
# Reading: higher = firmer interaction
# T1: itself; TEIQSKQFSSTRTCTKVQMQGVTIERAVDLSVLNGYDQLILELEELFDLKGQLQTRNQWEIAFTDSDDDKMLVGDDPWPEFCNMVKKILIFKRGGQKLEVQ
# T2: itself; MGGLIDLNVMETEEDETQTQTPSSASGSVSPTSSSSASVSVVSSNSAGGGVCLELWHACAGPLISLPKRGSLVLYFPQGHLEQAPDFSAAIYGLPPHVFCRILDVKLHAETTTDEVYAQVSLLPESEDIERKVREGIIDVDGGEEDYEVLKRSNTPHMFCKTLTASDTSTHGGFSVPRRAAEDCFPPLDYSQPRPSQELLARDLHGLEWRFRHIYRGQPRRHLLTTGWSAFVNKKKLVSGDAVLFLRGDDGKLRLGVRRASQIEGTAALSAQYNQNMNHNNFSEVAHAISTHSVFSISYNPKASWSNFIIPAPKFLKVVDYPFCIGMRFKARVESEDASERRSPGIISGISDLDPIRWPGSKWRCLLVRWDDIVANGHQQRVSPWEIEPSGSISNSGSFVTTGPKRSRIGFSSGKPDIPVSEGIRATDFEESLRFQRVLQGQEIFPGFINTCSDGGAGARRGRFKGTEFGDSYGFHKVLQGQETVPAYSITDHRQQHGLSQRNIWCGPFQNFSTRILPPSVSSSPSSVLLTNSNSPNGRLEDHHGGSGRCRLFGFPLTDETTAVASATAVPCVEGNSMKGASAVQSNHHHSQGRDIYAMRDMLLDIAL
# T3: itself; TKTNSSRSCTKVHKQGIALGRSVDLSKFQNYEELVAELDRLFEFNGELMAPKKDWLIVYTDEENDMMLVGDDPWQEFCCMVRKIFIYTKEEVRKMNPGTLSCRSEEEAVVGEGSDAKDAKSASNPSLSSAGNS
# T4: itself; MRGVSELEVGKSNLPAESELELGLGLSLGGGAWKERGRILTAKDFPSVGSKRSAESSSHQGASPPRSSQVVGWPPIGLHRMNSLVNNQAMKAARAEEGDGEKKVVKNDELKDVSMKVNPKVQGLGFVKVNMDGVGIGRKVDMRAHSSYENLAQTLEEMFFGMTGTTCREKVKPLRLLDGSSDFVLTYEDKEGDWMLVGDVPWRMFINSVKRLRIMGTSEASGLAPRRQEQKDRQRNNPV
# B1: ARF22 498-598 (Arabidopsis thaliana, UniProt Q9C8N7); chain TEIQSKQFSSTRTCTKVQMQGVTIERAVDLSVLNGYDQLILELEELFDLKGQLQTRNQWEIAFTDSDDDKMLVGDDPWPEFCNMVKKILIFKRGGQKLEVQ
# B2: ARF2 727-859 (Arabidopsis thaliana, UniProt Q94JM3); chain TKTNSSRSCTKVHKQGIALGRSVDLSKFQNYEELVAELDRLFEFNGELMAPKKDWLIVYTDEENDMMLVGDDPWQEFCCMVRKIFIYTKEEVRKMNPGTLSCRSEEEAVVGEGSDAKDAKSASNPSLSSAGNS
# B3: IAA12 (Arabidopsis thaliana, UniProt Q38830); chain MRGVSELEVGKSNLPAESELELGLGLSLGGGAWKERGRILTAKDFPSVGSKRSAESSSHQGASPPRSSQVVGWPPIGLHRMNSLVNNQAMKAARAEEGDGEKKVVKNDELKDVSMKVNPKVQGLGFVKVNMDGVGIGRKVDMRAHSSYENLAQTLEEMFFGMTGTTCREKVKPLRLLDGSSDFVLTYEDKEGDWMLVGDVPWRMFINSVKRLRIMGTSEASGLAPRRQEQKDRQRNNPV
Molecule,partner,positive tests
B1 (ARF22 498-598),"T1, itself",0
"ETT (Arabidopsis thaliana, UniProt O23661)","T2, itself",0
B2 (ARF2 727-859),"T3, itself",0
B3 (IAA12),"T4, itself",2

# For quick reference, copied from above (series 1):
target,observed,remaining binding [%]
"Uncharacterized serine/threonine-protein kinase SBK3 (SBK3, Homo sapiens, UniProt P0C264)",cell-free assay,92
"Epidermal growth factor receptor (EGFR, Homo sapiens, UniProt P00533, del752-759)",cell-free assay,100
"Phosphatidylinositol 4,5-bisphosphate 3-kinase catalytic subunit alpha isoform (PIK3CA, Homo sapiens, UniProt P42336, H1047Y)",cell-free assay,100
"Mast/stem cell growth factor receptor Kit (KIT, Homo sapiens, UniProt P10721, A829P)",cell-free assay,68
